Experimental data gathered from unrelated publications.
Compare with care: the assays were run in different laboratories. ± marks the error that the study gave. In brackets after ≈: the same amount, converted by molar mass.
Organism: Mycobacterium tuberculosis

Compound	assay	system	conditions	how to read	measurement	value
N#Cc1ccc2[nH]c(=S)n(Cc3cccnc3)c(=O)c2c1		PptT conditional knockdown			MIC90	1.48 µM (≈ 0.436 µg/mL)
Cc1nc(OCCc2cc(F)cc(F)c2)c(C(=O)NC2CCCC2)s1		H37Rv-LP		baseline: HepG2 CC50 over Mtb IC90	selectivity index	0.3
COc1ccc(-c2cc(C(F)(F)F)c3c(N)c(C(=O)N4CCCC4)sc3n2)cc1	growth inhibition	H37Rv LepB under-expressing			IC50	> 50000 nM
Cc1c(-c2ccc(N3CCCCC3)cc2)[nH]c2ccccc2c1=O	bacterial growth, microplate alamarBlue	H37Rv	aerobic		IC50	1570 ± 30 nM
COC1CN(C(=O)c2sc3ncccc3c2N)C1	growth inhibition	H37Rv LepB under-expressing			IC50	> 100000 nM
N#Cc1cncc(Cn2c(=S)[nH]c3cc(CO)c(Cl)cc3c2=O)c1		PptT conditional knockdown			MIC90	0.292 µM (≈ 0.105 µg/mL)
Cc1ccc(OCCc2cc(F)cc(F)c2)c(C(N)=O)c1	growth	H37Rv-LP	120 h		IC90	1300 ± 420 nM
CO[C@H]1/C=C/O[C@@]2(C)Oc3c(C)c(O)c4c(O)c(c(/C=N/N5CCN(C)CC5)c(O)c4c3C2=O)NC(=O)/C(C)=C\C=C\[C@H](C)[C@H](O)[C@@H](C)[C@@H](O)[C@@H](C)[C@H](OC(C)=O)[C@@H]1C		THP-1 macrophages, H37Rv-GFP	96 h		IC80	110 nM
CNC(=O)c1cc(C)ccc1OCCc1ccc(Br)cc1		H37Rv-LP		baseline: HepG2 CC50 over Mtb IC90	selectivity index	45
Nc1c(C(=O)NC23CC4CC(CC(C4)C2)C3)sc2nc(-c3ccc4c(c3)OCO4)cc(C(F)(F)F)c12	growth inhibition	H37Rv LepB under-expressing			IC50	270 ± 100 nM
Cc1cscc1-c1ccc(OCCc2cccc(F)c2)c(C(N)=O)c1	growth	H37Rv-LP	120 h		IC90	1400 ± 1100 nM
NC(=S)c1cncc(Cn2c(=S)[nH]c3ccc(Cl)cc3c2=O)c1		PptT conditional knockdown			MIC90	0.68 µM (≈ 0.247 µg/mL)
NC(=O)c1cc(-c2ccsc2)ccc1OCCc1cccc(F)c1		H37Rv-LP		baseline: HepG2 CC50 over Mtb IC90	selectivity index	86
NS(=O)(=O)N=c1[nH]c2ccc(Cl)cc2c(=O)n1Cc1cccnc1		PptT conditional knockdown			MIC90	> 100 µM
COc1ccc(-c2cc(C(F)(F)F)c3c(N)c(C(=O)NC(C)c4ccccc4)sc3n2)cn1 (stereo not drawn)	growth inhibition	H37Rv LepB under-expressing			IC50	290 ± 90 nM

A few entries again:
Compound	assay	system	conditions	how to read	measurement	value
Cc1cscc1-c1ccc(OCCc2cccc(F)c2)c(C(N)=O)c1	growth	H37Rv-LP	120 h		IC90	1400 ± 1100 nM
